Published values gathered from unrelated publications.
Numbers after ± are the reported error.
UniProt Q9NPD5, sequence (whole entry, unmodified, looked up): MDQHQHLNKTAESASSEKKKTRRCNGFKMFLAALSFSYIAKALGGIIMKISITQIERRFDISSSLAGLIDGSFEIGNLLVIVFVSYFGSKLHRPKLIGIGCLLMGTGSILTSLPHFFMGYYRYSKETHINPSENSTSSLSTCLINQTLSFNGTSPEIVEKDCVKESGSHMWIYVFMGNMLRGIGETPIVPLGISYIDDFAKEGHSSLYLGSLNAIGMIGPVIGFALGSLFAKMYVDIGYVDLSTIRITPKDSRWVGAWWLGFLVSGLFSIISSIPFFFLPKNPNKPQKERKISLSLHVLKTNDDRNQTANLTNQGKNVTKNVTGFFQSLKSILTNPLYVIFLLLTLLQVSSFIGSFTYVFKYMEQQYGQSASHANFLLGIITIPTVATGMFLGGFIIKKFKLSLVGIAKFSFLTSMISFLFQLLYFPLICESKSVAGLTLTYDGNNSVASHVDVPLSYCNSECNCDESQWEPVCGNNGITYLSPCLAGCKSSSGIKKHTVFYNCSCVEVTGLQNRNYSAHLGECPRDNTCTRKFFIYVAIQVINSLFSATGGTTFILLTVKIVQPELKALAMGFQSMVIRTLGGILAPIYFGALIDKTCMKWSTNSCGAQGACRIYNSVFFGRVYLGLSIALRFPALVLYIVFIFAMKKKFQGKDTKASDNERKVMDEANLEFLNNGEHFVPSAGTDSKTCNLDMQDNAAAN
UniProt Q12809, sequence (whole entry, looked up): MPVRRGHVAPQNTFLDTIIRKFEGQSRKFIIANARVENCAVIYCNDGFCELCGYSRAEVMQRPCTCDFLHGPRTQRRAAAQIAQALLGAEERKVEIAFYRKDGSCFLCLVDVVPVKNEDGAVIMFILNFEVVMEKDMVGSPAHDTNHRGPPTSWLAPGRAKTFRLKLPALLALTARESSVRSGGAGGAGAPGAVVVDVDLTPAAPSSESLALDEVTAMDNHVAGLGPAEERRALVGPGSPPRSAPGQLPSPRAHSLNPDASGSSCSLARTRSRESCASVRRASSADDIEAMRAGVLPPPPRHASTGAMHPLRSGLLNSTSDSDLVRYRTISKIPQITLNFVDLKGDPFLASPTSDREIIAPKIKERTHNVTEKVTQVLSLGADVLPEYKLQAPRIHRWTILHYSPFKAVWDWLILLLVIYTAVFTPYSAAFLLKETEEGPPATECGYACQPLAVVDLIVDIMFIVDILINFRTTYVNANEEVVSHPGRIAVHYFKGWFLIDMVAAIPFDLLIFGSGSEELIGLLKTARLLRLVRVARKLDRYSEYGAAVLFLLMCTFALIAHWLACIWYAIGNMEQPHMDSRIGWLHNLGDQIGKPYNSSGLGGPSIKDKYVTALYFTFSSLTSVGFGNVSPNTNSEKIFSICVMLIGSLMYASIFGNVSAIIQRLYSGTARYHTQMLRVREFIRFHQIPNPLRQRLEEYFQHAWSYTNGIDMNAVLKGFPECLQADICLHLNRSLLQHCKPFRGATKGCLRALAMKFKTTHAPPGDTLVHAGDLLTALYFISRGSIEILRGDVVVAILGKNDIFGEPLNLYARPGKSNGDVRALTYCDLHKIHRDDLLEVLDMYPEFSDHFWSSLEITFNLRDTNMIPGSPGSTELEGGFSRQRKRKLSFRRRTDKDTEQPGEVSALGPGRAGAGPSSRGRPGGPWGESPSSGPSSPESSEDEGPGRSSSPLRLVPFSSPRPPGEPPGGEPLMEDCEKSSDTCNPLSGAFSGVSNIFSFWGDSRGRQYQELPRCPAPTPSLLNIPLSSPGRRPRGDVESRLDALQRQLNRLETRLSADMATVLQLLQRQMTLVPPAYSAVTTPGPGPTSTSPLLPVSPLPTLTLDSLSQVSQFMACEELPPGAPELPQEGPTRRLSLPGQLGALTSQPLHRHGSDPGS
UniProt P27338, sequence (whole entry, looked up): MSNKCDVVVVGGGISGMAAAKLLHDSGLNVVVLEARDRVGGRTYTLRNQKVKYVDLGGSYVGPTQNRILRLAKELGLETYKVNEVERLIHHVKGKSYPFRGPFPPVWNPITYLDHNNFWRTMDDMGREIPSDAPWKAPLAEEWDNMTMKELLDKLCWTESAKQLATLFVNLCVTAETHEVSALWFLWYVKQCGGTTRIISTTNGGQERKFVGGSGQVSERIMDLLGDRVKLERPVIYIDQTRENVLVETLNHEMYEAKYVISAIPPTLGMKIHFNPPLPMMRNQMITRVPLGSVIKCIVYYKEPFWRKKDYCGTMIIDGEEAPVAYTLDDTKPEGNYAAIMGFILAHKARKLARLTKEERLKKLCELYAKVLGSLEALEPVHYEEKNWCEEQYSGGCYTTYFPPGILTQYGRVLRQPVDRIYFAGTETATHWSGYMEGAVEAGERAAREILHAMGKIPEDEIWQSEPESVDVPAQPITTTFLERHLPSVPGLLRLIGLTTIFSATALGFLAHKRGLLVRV
UniProt P08684, sequence (whole entry, looked up): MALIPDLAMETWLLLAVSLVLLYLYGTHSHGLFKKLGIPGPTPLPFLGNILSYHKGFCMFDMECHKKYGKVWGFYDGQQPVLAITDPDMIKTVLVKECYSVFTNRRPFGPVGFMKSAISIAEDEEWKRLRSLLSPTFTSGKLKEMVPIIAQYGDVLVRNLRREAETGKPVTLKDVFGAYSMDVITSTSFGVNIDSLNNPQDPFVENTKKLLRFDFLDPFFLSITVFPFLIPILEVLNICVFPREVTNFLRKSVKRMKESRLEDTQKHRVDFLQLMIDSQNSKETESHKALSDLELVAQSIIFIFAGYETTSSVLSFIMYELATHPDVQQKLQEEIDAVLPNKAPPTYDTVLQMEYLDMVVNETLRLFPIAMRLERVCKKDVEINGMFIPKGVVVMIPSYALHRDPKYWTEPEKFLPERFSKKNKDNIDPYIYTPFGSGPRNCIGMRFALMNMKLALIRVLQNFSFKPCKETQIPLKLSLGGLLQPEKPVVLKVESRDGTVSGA
UniProt P11712, sequence (whole entry, looked up): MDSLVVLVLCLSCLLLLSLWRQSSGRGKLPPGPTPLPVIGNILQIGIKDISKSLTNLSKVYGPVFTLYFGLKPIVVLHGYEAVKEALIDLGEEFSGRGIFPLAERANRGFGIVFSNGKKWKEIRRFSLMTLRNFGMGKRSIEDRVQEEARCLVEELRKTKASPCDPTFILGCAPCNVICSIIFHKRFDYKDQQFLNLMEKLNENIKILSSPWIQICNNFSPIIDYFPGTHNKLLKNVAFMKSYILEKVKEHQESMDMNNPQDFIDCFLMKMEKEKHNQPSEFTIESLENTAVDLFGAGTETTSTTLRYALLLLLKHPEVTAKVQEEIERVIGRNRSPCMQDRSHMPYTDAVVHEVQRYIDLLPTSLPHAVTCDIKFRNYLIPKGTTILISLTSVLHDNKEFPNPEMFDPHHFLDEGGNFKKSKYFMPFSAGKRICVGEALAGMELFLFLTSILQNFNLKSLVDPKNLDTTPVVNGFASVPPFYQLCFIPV

| SMILES | target | test | system | conditions | how to read | measurement | value |
| --- | --- | --- | --- | --- | --- | --- | --- |
| CNC(=O)c1cc(Oc2ccc(NC(=O)Nc3ccc(Cl)c(C(F)(F)F)c3)cc2)ccn1 | SLCO1B3 (Homo sapiens, UniProt Q9NPD5, M233I) | substrate, uptake | HEK293-A stably expressing SLCO1B3 | 2 min | – | Km | 43.9 µM |
| Cc1oc2ccccc2c1Cc1cc(I)c(OCC(=O)O)c(I)c1 | KCNH2 (Homo sapiens, UniProt Q12809) | potassium current, inhibitor, patch clamp | SH-SY5Y (endogenous) | 10 µM, at +50 mV | – | inhibition | 23% |
| CCc1cc(/C(C)=N/OCc2ccc(C3CCCCC3)c(C(F)(F)F)c2)ccc1CN1CC(C(=O)O)C1 | SLCO1B3 (Homo sapiens, UniProt Q9NPD5) | inhibitor | HEK293 transfected with SLCO1B3 | 16.8 µM, 3 min, with: estradiol-17β-glucuronide 1 µM | – | maximal inhibition | 87% |
| CC(C)Nc1ccnc(Nc2cccc(C(C)(C)C)c2)n1 | P-glycoprotein (human MDR1) | – | MDR1-MDCKII | 10 µM, 1 h, pH 7.4 | – | Papp (B-A) | 1.57 ± 0.68 ×10⁻⁶ cm/s |
| CC(C)n1c(/C=C/C(O)CC(O)CC(=O)O)c(-c2ccc(F)cc2)c2ccccc21 (stereo not drawn) | SLCO1B3 (Homo sapiens, UniProt Q9NPD5, S112A) | substrate, uptake | HEK293-A stably expressing SLCO1B3 | 2 min | – | Km | 8.43 µM |
| NCc1cc2c(cc1F)C(=O)N(C1CCC(=O)NC1=O)C2 (stereo not drawn) | MAOB (Homo sapiens, UniProt P27338) | substrate, LC-MS/MS | recombinant enzyme | 10 µM, 8 h, pH 7.4 | – | concentration | 8.2 µM |
| CC(C)Nc1ccnc(Nc2cccc(-c3ccccc3)c2)n1 | P-glycoprotein (human MDR1) | – | MDR1-MDCKII | 10 µM, 1 h, pH 7.4 | relative to: B-A over A-B | efflux ratio | 1.43 |
| CC[C@H]1[C@@H](O)[C@@H]2[C@H](CC[C@]3(C)[C@@H]([C@H](C)CCNC(=O)NS(=O)(=O)c4ccc(C(C)(C)C)cc4)CC[C@@H]23)[C@@]2(C)CC[C@@H](O)C[C@@H]12 | Cytochrome P450 3A4 (CYP3A4, Homo sapiens, UniProt P08684) | substrate | human, plasma | 10 mg, alone, study day 1 | – | AUC(0-inf) mean | 394 ng·h/mL |
| CC(C)Nc1ccnc(Nc2cccc(-c3ccncc3)c2)n1 | P-glycoprotein (human MDR1) | – | MDR1-MDCKII | 10 µM, 1 h, pH 7.4 | relative to: B-A over A-B | efflux ratio | 0.72 |
| N#C[C@H](C[C@@H]1CCCNC1=O)NC(=O)[C@H](CC1CC1)NC(=O)c1cc2cccc(Cl)c2[nH]1 | Cytochrome P450 2C9 (CYP2C9, Homo sapiens, UniProt P11712) | NADPH metabolic stability | – | 2 µM, pH 7.4, 37 °C, 100 pmol/mL enzyme | – | half-life | 1.85 h |
| CC(C)c1nc(N(C)S(C)(=O)=O)nc(-c2ccc(F)cc2)c1/C=C/[C@@H](O)C[C@@H](O)CC(=O)O | SLCO1B3 (Homo sapiens, UniProt Q9NPD5, M233I/S112A) | substrate, uptake | HEK293-A stably expressing SLCO1B3 | 2 min | – | Km | 9.11 µM |
| CC(C)Nc1ccnc(Nc2cccc(-c3ccccn3)c2)n1 | P-glycoprotein (human MDR1) | – | MDR1-MDCKII | 10 µM, 1 h, pH 7.4 | – | Papp (B-A) | 1.03 ± 0.707 ×10⁻⁶ cm/s |

Excerpt of the above:
| SMILES | target | test | system | conditions | how to read | measurement | value |
| --- | --- | --- | --- | --- | --- | --- | --- |
| Cc1oc2ccccc2c1Cc1cc(I)c(OCC(=O)O)c(I)c1 | KCNH2 (Homo sapiens, UniProt Q12809) | potassium current, inhibitor, patch clamp | SH-SY5Y (endogenous) | 10 µM, at +50 mV | – | inhibition | 23% |
| CCc1cc(/C(C)=N/OCc2ccc(C3CCCCC3)c(C(F)(F)F)c2)ccc1CN1CC(C(=O)O)C1 | SLCO1B3 (Homo sapiens, UniProt Q9NPD5) | inhibitor | HEK293 transfected with SLCO1B3 | 16.8 µM, 3 min, with: estradiol-17β-glucuronide 1 µM | – | maximal inhibition | 87% |
